Experimental data gathered from unrelated publications.
Each line is one published result; not all experiments were run side by side. ± marks the error that the study gave.

| Compound | test | test system | setting | tissue uptake |
| --- | --- | --- | --- | --- |
| O=C(NCC1OC2CCC=CCCC2O1)c1ccc([18F])nc1 (centres unmarked) | – | healthy female BALB/c nude mice, large intestine | intravenous, 7.4 MBq per mouse, 2 min | 3.3 ± 0.2 %ID/g |
| N#C[C@@H]1CCCN1C(=O)CNC(=O)c1ccnc2ccc(OCCCN3CCN(C(=O)CCc4ccc5c(c4)CN4CCN6CC(=O)[O][68Ga-]([O]C(=O)C4)([O]5)[O]c4ccc(CCC(=O)N5CCN(CCCOc7ccc8nccc(C(=O)NCC(=O)N9CCC[C@H]9C#N)c8c7)CC5)cc4C6)CC3)cc12 | – | BALB/c nude mice, U-87 MG xenograft, kidney | 1 h | 2.78 ± 1.12 %ID/g |
| CCCC[C@H](NC(=O)COCCOCCNC(=O)CN1CCN(CC(=O)O)CCN(CC(=O)O)CC1)C(=O)N[C@H]1CC(=O)NCCCC[C@@H](C(N)=O)NC(=O)[C@H](Cc2c[nH]c3ccccc23)NC(=O)[C@H](CCCNC(=N)N)NC(=O)[C@@H](Cc2ccccc2)NC(=O)[C@H](Cc2c[nH]cn2)NC1=O [fluorine-18 labelled] | – | C57 mice B16-F10 melanoma, stomach | intravenous, 0.37 MBq, 0.5 h | 1.69 ± 0.52 %ID/g |
| Cc1cc(C)n(CCN(CCN)CCCCCCNC(=O)[C@@H](N)Cc2c[nH]c3ccccc23)n1.[99Tc+].[C-]#[O+].[C-]#[O+].[C-]#[O+] | – | BALB/c nude mice, A549 xenograft, brain | intravenous, 4 h | 0.06 ± 0.01 %IA/g |
| CCCC[C@H](NC(=O)CNC(=O)CNC(=O)[C@H](CCCCNC(=O)[C@H](CC(N)=O)NC(=O)C(C)c1ccc(CC(C)C)cc1)NC(=O)CN1CCN(CC(=O)O)CCN(CC(=O)O)CCN(CC(=O)O)CC1)C(=O)N[C@H]1CC(=O)NCCCC[C@@H](C(N)=O)NC(=O)[C@H](Cc2c[nH]c3ccccc23)NC(=O)[C@H](CCCNC(=N)N)NC(=O)[C@@H](Cc2ccccc2)NC(=O)[C@H](Cc2c[nH]cn2)NC1=O (some centres unmarked) [lutetium-177 labelled] | – | C57 mice, tumour-bearing, skin | 2 h | 1.31 ± 0.55 %ID/g |
| O=C([O-])CN1CCN(CC(=O)[O-])CCN(CC(=O)NC[C@H]2CC[C@H](C(=O)N[C@H](Cc3cnc4ccccc4c3)C(=O)NCCCC[C@H](NC(=O)N[C@@H](CCC(=O)O)C(=O)O)C(=O)O)CC2)CCN(CC(=O)[O-])CC1.[64Cu+2] | ex vivo gamma counting | 22Rv1 tumour-bearing mice, heart | intravenous, 0.74 MBq, 24 h post-injection | 5.07 %ID/g |
| COc1ccc2c(c1)C(C)(C)C(/C=C/C1=C(Oc3ccc(C(=O)NCCCCOc4cc(CN(Cc5ccccn5)Cc5ccccn5)cc(CN(Cc5ccccn5)Cc5ccccn5)c4)cc3)C(=C/C=C3/N(CCCCS(=O)(=O)[O-])c4ccc(OC)cc4C3(C)C)CCC1)=[N+]2CCCCS(=O)(=O)[O-].O=[N+]([O-])[O-].O=[N+]([O-])[O-].[99Tc+].[C-]#[O+].[C-]#[O+].[C-]#[O+].[Zn+2] | – | BALB/c mice, S. aureus myositis, adrenals | 12 h post-injection | 5.13 %ID/g |
| CCCC[C@H](NC(=O)CCCCCCCNC(=O)CN1CCN(CC(=O)O)CCN(CC(=O)O)CC1)C(=O)N[C@H]1CC(=O)NCCCC[C@@H](C(N)=O)NC(=O)[C@H](Cc2c[nH]c3ccccc23)NC(=O)[C@H](CCCNC(=N)N)NC(=O)[C@@H](Cc2ccccc2)NC(=O)[C@H](Cc2c[nH]cn2)NC1=O [fluorine-18 labelled] | – | C57 mice, B16/F10 melanoma, lung | intravenous, 1 h, with: NDP-MSH 10 µg | 1.57 ± 0.41 %ID/g |
| O=C(NCC1OC2CCC=CCCC2O1)c1ccc(COCCOCCOCC[18F])cc1 (centres unmarked) | – | healthy female BALB/c nude mice, spleen | intravenous, 7.4 MBq per mouse, 30 min | 2.7 ± 0.01 %ID/g |
| Cc1cc(C)n(CCN(CCN)CCCCCCNC(=O)[C@@H](N)Cc2c[nH]cn2)n1.[99Tc+].[C-]#[O+].[C-]#[O+].[C-]#[O+] | – | BALB/c nude mice, A549 xenograft, spleen | intravenous, 24 h | 0.31 ± 0.08 %IA/g |
| CCCC[C@H](NC(=O)CNC(=O)CNC(=O)[C@H](CCCCNC(=O)[C@H](CC(=O)O)NC(=O)C(C)c1ccc(CC(C)C)cc1)NC(=O)CN1CCN(CC(=O)O)CCN(CC(=O)O)CCN(CC(=O)O)CC1)C(=O)N[C@H]1CC(=O)NCCCC[C@@H](C(N)=O)NC(=O)[C@H](Cc2c[nH]c3ccccc23)NC(=O)[C@H](CCCNC(=N)N)NC(=O)[C@@H](Cc2ccccc2)NC(=O)[C@H](Cc2c[nH]cn2)NC1=O (some centres unmarked) [lutetium-177 labelled] | – | C57 mice, tumour-bearing, heart | intravenous, 0.037 MBq, 24 h | 0.26 ± 0.04 %ID/g |
| COc1ccc(Nc2nc(Nc3ccc(OCCOCC[18F])cc3)ncc2Br)cc1 | – | ICR mice, S180 tumour, brain | intravenous, 30 min, with: PF-562271 33 mg/kg oral 1 h before | 1.96 ± 0.2 %ID/g |
| CC(C)C[C@H](NC(=O)[C@@H](CCCCNC(=O)[C@@H](Cc1ccccc1)NC(=O)CCCCCCCNC(=O)CN1CCN(CC(=O)O)CCN(CC(=O)O)CCN(CC(=O)O)CC1)NC(=O)[C@H](Cc1ccc(O)cc1)NC(=O)[C@H](CO)NC(=O)[C@H](Cc1c[nH]c2ccccc12)NC(=O)[C@H](Cc1c[nH]cn1)NC(=O)[C@@H]1CCC(=O)N1)C(=O)N[C@@H](CCCNC(=N)N)C(=O)N1CCC[C@H]1C(=O)NCC(N)=O [indium-111 labelled] | – | male athymic nude mice, DU-145 prostate cancer xenograft, heart | intravenous, dose not given, 1 h, with: unlabeled blocking peptide 10 µg | 0.17 ± 0.06 %ID/g |
| O=C(O)CCCOc1ccc([18F])cc1-c1cc(-c2ccccc2C(F)(F)F)n(-c2ccccc2)n1 | – | mice, bladder and urine | intravenous, 180 min | 0.35 ± 0.15 %ID/g |

Some of these lines once more:
| Compound | test | test system | setting | tissue uptake |
| --- | --- | --- | --- | --- |
| CCCC[C@H](NC(=O)CNC(=O)CNC(=O)[C@H](CCCCNC(=O)[C@H](CC(=O)O)NC(=O)C(C)c1ccc(CC(C)C)cc1)NC(=O)CN1CCN(CC(=O)O)CCN(CC(=O)O)CCN(CC(=O)O)CC1)C(=O)N[C@H]1CC(=O)NCCCC[C@@H](C(N)=O)NC(=O)[C@H](Cc2c[nH]c3ccccc23)NC(=O)[C@H](CCCNC(=N)N)NC(=O)[C@@H](Cc2ccccc2)NC(=O)[C@H](Cc2c[nH]cn2)NC1=O (some centres unmarked) [lutetium-177 labelled] | – | C57 mice, tumour-bearing, heart | intravenous, 0.037 MBq, 24 h | 0.26 ± 0.04 %ID/g |
| COc1ccc(Nc2nc(Nc3ccc(OCCOCC[18F])cc3)ncc2Br)cc1 | – | ICR mice, S180 tumour, brain | intravenous, 30 min, with: PF-562271 33 mg/kg oral 1 h before | 1.96 ± 0.2 %ID/g |
